Published values gathered from unrelated publications.
Protocols differ between the studies behind these lines. ± gives the spread as reported.
Sequence of UniProt Q9UNQ0 (whole entry, looked up): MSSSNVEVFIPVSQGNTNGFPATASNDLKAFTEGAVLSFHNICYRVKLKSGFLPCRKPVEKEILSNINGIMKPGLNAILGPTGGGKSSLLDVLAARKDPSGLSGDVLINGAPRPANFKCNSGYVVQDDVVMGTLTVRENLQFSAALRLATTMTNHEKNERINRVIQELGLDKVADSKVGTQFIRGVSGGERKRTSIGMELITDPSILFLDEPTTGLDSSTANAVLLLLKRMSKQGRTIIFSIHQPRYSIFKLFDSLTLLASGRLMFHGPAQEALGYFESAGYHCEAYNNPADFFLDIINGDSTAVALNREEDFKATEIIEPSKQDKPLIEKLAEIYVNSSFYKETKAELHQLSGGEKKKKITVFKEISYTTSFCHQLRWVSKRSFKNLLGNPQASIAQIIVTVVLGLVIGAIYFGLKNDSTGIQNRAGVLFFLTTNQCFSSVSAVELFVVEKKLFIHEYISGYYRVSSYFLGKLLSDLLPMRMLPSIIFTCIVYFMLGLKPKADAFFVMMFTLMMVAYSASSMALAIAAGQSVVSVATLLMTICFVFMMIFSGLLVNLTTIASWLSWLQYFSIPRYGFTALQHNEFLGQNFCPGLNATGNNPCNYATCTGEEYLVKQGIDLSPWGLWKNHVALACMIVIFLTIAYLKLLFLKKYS
Sequence of UniProt P61073 (whole entry, looked up): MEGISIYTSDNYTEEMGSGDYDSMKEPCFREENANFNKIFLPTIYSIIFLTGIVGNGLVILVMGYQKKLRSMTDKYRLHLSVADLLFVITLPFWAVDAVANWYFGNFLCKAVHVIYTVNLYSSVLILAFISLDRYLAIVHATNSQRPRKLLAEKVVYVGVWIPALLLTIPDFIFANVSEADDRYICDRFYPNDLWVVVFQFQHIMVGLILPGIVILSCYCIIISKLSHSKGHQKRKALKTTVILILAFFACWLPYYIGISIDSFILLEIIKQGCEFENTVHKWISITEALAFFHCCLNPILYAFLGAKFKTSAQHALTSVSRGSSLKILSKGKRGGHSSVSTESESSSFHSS

SMILES | tested on | assay | test system | setting | scale | endpoint | value
COc1cc(C(=O)NCCOCCOCCOCCNC(=O)c2ccc([18F])nc2)ccc1NC(=O)C1NC(CC(C)(C)C)C(C#N)(c2ccc(Cl)cc2F)C1c1cccc(Cl)c1F (stereo not drawn) | HepG2 tumour model |  | host not given, stomach | 30 min, tumour-bearing |  | tracer uptake | 2.15 %ID/g
Nc1nc2c([C@@H]3O[C@@H]4COP(=O)(O)O[C@H]5[C@@H](O)[C@H](c6snc7c(=O)[nH]c(N)nc67)O[C@@H]5COP(=O)(O)O[C@H]4[C@H]3O)snc2c(=O)[nH]1 |  |  | water |  |  | emission maximum | 456 nm
CN1CCN(c2cccc(Nc3cc4c(cn3)cc(-c3cccc(O)c3)c(=O)n4C)c2)CC1 | influenza A virus H1N1 PR8 |  | mouse | dose not given |  | antiviral activity | no effect
Oc1ccc(Nc2ccnc3cc(Cl)ccc23)cc1 | Vero WNV replicon cells |  |  | 24 h |  | CC50 | > 100 µM
O=C(O)CCC(NP(=O)(O)OCCC[C@@H](NC(=O)CCC(NC(=O)CCCCCNC(=O)c1ccc([18F])cc1)C(=O)O)C(=O)O)C(=O)O (stereo partly drawn) | CWR22Rv1 tumour model |  | host not given, blood | intravenous, 2 h, tumour-bearing |  | tracer uptake | 0.04 %ID/g
C[C@@](O)(C(F)F)[C@H](NC(=O)c1ccc(C#CC#CC2CC2)cc1)C(=O)NO |  |  | CD-1 mice | oral, 40 mg/kg, not fasted |  | apparent volume of distribution (Vz/F) | 32 ± 18 L/kg
COc1ccc(CNc2nc(N3CCC[C@H]3CO)ncc2C(=O)NN)cc1Cl | Salmonella typhimurium |  | TA98 | 125 µg/plate, 48 h |  | revertant count | 39 ± 4
CN[C@](C)(C[18F])C(=O)O | SK-OV-3 tumour model |  | host not given, kidney | 30 min, tumour-bearing |  | tracer uptake | 12 %ID/g
COc1ccc(CNc2nc(N3CCC[C@H]3CO)ncc2C(=O)NNC(=O)c2cnc(N3CCC[C@H]3CO)nc2NCc2ccc(OC)c(Cl)c2)cc1Cl | Salmonella typhimurium |  | TA102 | 1000 µg/plate |  | revertant count | 201 ± 7
CCC(=O)N(C)c1ccc(Cl)c(Cl)c1 | Escherichia coli | Ames test | WP2 uvrA | 5.00 mg/plate, without S9 activation |  | revertants | 0 revertants/plate
CC(C)n1c2c(c3c(O)cccc31)C(=O)c1ccccc1-2 | Broad substrate specificity ATP-binding cassette transporter ABCG2 (ABCG2, Homo sapiens, UniProt Q9UNQ0) | mitoxantrone efflux, inhibitor, flow cytometry | HEK293 transfected with ABCG2 | 10 µM, 30 min, added: mitoxantrone 5 µM | relative to: Ko143 1 µM | inhibition | 45%
O=C(O)CCC(NP(=O)(O)OCCC[C@@H](NC(=O)CCC(NC(=O)c1ccc([18F])cc1)C(=O)O)C(=O)O)C(=O)O (stereo partly drawn) | CWR22Rv1 tumour model |  | host not given, heart | intravenous, 1 h, tumour-bearing |  | tracer uptake | 0.75 %ID/g
CN1C(=O)[C@@H](Cc2ccc(O)cc2)NC(=O)CNC(=O)[C@H](Cc2ccc3ccccc3c2)NC(=O)[C@H](CCCNC(=N)N)NC(=O)[C@H]1CCCNC(=O)c1ccc(CNC(=O)CN2CCN(CC(=O)O)CCN(CC(=O)O)CCN(CC(=O)O)CC2)cc1 [gallium-68 labelled] | C-X-C chemokine receptor type 4 (CXCR4, Homo sapiens, UniProt P61073) | PET imaging | human, bladder |  |  | SUVmean | 36.4
O=C(O)CCC(NP(=O)(O)OCCC[C@@H](NC(=O)CCC(NC(=O)CCCCCNC(=O)CCCCCNC(=O)c1ccc([18F])cc1)C(=O)O)C(=O)O)C(=O)O (stereo partly drawn) | CWR22Rv1 tumour model |  | host not given, blood | intravenous, 1 h, tumour-bearing |  | tracer uptake | 0.12 %ID/g
C[C@H]1CC[C@H](NC(=S)NNC(=O)c2ccccn2)CC1 | African green monkey cells | cell viability |  | 24 (unit not given) |  | CC50 | 18.8 µM

Repeated from above:
SMILES | tested on | assay | test system | setting | scale | endpoint | value
Oc1ccc(Nc2ccnc3cc(Cl)ccc23)cc1 | Vero WNV replicon cells |  |  | 24 h |  | CC50 | > 100 µM
